Published values collected from several papers.
Lines come from different studies, so protocols differ.

Cc1cc(C)c(CNC(=O)c2cc(Cl)c3c(c2C)O[C@@](C)([C@H]2CC[C@H](N(C)C)CC2)O3)c(=O)[nH]1
incidence of INR increased (relapsed/refractory NHL patients; dose not given, trial, safety set, all TEAEs grade 5): 0%

O=c1ccc2ccc3occc3c2o1
accuracy (three freeze-thaw cycles; rat plasma; 8 ng/mL, -70 °C freeze): 102%

CO[C@H]1C[C@@H]2CC[C@@H](C)[C@@](O)(O2)C(=O)C(=O)N2CCCC[C@H]2C(=O)O[C@H]([C@H](C)C[C@@H]2CC[C@@H](OC(=O)NCCOCCOCCOCCOCCOCCOCCOCCOCCC(=O)N3CCc4cc(Cn5nc(-c6ccc7oc(N)nc7c6)c6c(N)ncnc65)ccc4C3)[C@H](OC)C2)C[C@@H](O)[C@H](C)/C=C(\C)[C@@H](O)[C@@H](OC)C(=O)[C@H](C)C[C@H](C)/C=C/C=C/C=C/1C
AE leading to dose reduction (patients with advanced solid tumours; intravenous, 6 mg weekly, any grade): 0%

COc1ncnn2ccc(-c3cnc4nc(C)n(Cc5nnc([C@@H](C)F)o5)c4c3)c12
incidence of Pyrexia (human patients; oral, dose not given, grade 1 adverse drug reaction): 7.1%

COc1cc2c(Oc3ccc4[nH]c(C)cc4c3F)ccnc2cc1OCC1(N)CC1
grade 3 mouth ulcer (paediatric refractory sarcoma patients; 8 mg): 0%

C[C@]1(CO)Cc2ncn(-c3ccc(C#N)c(Cl)c3)c2C(=O)O1
subjects with any TEAE (human, Chinese; 20 mg single dose): 16.7%

CC1(C)C(/C=C(\Cl)C(F)(F)F)C1C(=O)OC(C#N)c1cccc(Oc2ccccc2)c1 (centres unmarked)
enzyme contribution to clearance (item: CYP2C9; human, age 5 years): 0.46%

CN1CC[C@@H](c2c(O)cc(O)c3c(=O)cc(-c4ccc(C(F)(F)F)cc4Cl)oc23)[C@@H]1CO
patients with adverse event (item: Hypertension; AML; oral, 150 mg, intermittent dosing): 0%

Repeated from above:
C[C@]1(CO)Cc2ncn(-c3ccc(C#N)c(Cl)c3)c2C(=O)O1
subjects with any TEAE (human, Chinese; 20 mg single dose): 16.7%
